Measured values pooled from the literature.
Parts stem from different laboratories: compare values within a part only. Substitutions count along the parent as printed.

Block 1
Target: Protein max, full length (MAX, Homo sapiens, UniProt P61244-2, residues 1-151)
Method: protein-binding microarray
Molecule type: double-stranded DNA, one strand shown
Medium: in vitro
Concentration: not given
Notes: k-mer, scored over probes, only values ≥0.25
Direction: higher = stronger binding
Measurement: E-score
Strand = CGTGTACA; value = 0.323
Strand = ATGAGGGA; value = 0.251
Strand = GAGCACGA; value = 0.321
Strand = GCGCACCC; value = 0.254
Strand = ACCACGCT; value = 0.444
Strand = CCATGCAA; value = 0.325
Strand = GAGCATGC; value = 0.408
Strand = CGTGAGAG; value = 0.309

Block 2
Target: Prothrombin, mature alpha-thrombin (F2, Homo sapiens, UniProt P00734)
Method: aptamer microarray, sandwich
Molecule type: DNA with 2'F-ANA
Medium: in vitro
Concentration: 200 nM
Notes: whole 15-mer aptamer, many near background
Added: Cy3 exosite-II aptamer, 400 nM
Direction: higher = stronger binding
Measurement: mean fluorescence intensity
Strand: GGTTGGTGTGGTTGG
Modification = 2'F-ANA at 1 5 6 7; value = 57.1 a.u.
Modification = 2'F-ANA at 2 4 5 7 8 9 10 15; value = 55.5 a.u.
Modification = 2'F-ANA at 1 5 6 7 9 10; value = 48.5 a.u.
Modification = 2'F-ANA at 3 8 10 12 15; value = 584 a.u.
Modification = 2'F-ANA at 2 9 14; value = 140 a.u.
Modification = 2'F-ANA at 1 4 6 7 8 9 10 12 15; value = 80.6 a.u.
Modification = 2'F-ANA at 1 7 11 13 14; value = 54.2 a.u.
Modification = 2'F-ANA at 1 2 5 6 7 10 12 13 14; value = 48.3 a.u.

Block 3
Target: Phosphate system positive regulatory protein PHO4, full length, GST-tagged (PHO4, Saccharomyces cerevisiae, UniProt P07270, residues 1-312)
Method: competition protein-binding microarray
Molecule type: double-stranded DNA, one strand shown
Medium: in vitro
Concentration: 2 µM
Notes: whole 60-bp probe, lowest competitor level
Added: Cbf1 competitor, 0.05 µM
Direction: higher = stronger binding
Measurement: fluorescence intensity
Constant ends, left off below: … GTCTTGATTCGCTTGACGCTGCTG
Target sequence (chain): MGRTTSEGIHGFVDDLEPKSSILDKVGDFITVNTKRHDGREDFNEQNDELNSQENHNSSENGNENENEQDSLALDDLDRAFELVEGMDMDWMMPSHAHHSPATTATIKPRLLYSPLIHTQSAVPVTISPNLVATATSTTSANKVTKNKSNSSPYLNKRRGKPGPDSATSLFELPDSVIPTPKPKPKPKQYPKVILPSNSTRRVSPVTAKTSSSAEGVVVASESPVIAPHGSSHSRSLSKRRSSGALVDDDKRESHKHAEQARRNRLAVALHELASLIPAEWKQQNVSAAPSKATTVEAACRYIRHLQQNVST
Strand = AAGTTGGTAAGCGACCACGTGATGGTGCTTTGGGTT; value = 16500 a.u.
Strand = CGTCCTAGTGATTGTCACTCCACTTCCATGAGGAAG; value = 4390 a.u.
Strand = TTTCCGCACAAGCACCATGTGTGAAAACATGCAGAT; value = 11100 a.u.
Strand = GGCGTTTCTGATCTTCATGTGGTCGGAGTGGAATTC; value = 5410 a.u.
Strand = TGATGAAATCTCTGTGACCTGGAGCATCAATAACGG; value = 3360 a.u.
Strand = TCGAATAAAGTGAAACATGTGATACCCGCCATCCAA; value = 9600 a.u.
Strand = GCAGTGCCATCCCGTCACATGACAACACCACTTTAA; value = 7650 a.u.
Strand = TCCACCAACGATGGGTCCGTGACGAATGGTTCAACG; value = 4970 a.u.

Mixed results
Parent: viral docking peptide; KGVKRKLFAEDSS; partner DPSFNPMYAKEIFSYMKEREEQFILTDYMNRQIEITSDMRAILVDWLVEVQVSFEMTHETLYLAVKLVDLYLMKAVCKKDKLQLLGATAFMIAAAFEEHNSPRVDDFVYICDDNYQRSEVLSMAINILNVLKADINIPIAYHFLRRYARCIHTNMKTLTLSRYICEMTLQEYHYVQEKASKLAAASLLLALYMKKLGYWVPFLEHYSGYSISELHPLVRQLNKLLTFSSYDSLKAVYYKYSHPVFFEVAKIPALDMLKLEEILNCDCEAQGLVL
Variant = F8W; target = CCNB3, cyclin fold, Cln2 fusion (human); assay = yeast growth competition, sequencing; test system = yeast; conditions = strong parent motif; how to read = baseline: not given, higher = stronger binding; measurement = normalised enrichment score; value = 0.207

For quick reference, copied from above (block 2):
Modification = 2'F-ANA at 1 4 6 7 8 9 10 12 15; value = 80.6 a.u.
Modification = 2'F-ANA at 1 7 11 13 14; value = 54.2 a.u.
Modification = 2'F-ANA at 1 2 5 6 7 10 12 13 14; value = 48.3 a.u.
